Results of several laboratories.
A part holds a random share of what one study measured.

Set 1 — technique: protein binding microarray; form: double-stranded DNA, one strand shown; medium: in vitro; concentration: not given; reference: not given; direction: higher = stronger binding; endpoint: E-score
Target: Histone acetyltransferase KAT6A, both winged helices, GST fusion (KAT6A, Homo sapiens, UniProt Q92794, residues 1-181)
Notes: 8-mer, flanks averaged, mean of 2 arrays, mostly near background
Construct (chain): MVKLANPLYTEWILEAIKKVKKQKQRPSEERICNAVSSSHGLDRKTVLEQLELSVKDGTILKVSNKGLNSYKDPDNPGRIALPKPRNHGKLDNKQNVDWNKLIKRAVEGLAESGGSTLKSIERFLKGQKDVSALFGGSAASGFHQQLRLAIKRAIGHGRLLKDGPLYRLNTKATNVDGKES
Strand = AGAACGCT; result = -0.00937
Strand = CCGGAAAA; result = 0.182
Strand = ACACCGAT; result = 0.0511
Strand = AACTGTGA; result = 0.0474
Strand = ACATCCTC; result = -0.0594
Strand = CGCTAACG; result = 0.302
Strand = ATGCGGCA; result = 0.151
Strand = AACGGATC; result = 0.0263
Strand = ATCGGTGG; result = -0.0821
Strand = TCTGTTCA; result = -0.00433
Strand = ATTAGTCA; result = -0.0461
Strand = AGCAATAG; result = -0.108
Strand = CATCTGGA; result = -0.0896
Strand = ACCCGAAA; result = 0.115
Strand = TCTTCGAA; result = 0.0821
Strand = GAGAGTAC; result = -0.0345
Strand = CTTCACCA; result = -0.0878
Strand = ACGATGAA; result = -0.0254
Strand = AGAGGGAT; result = -0.247
Strand = ACTCGTTC; result = -0.124
Strand = AGAACGTA; result = 0.0193
Strand = ATAGGGCG; result = -0.0159
Strand = CGAGCTAG; result = 0.0209
Strand = GATGTGGC; result = 0.0423
Strand = ACTGTACC; result = 0.00458

Set 2 — technique: RNA Bind-n-Seq; form: RNA; medium: in vitro; concentration: 365 nM; reference: no-protein control; direction: higher = stronger binding; endpoint: RBNS enrichment (R)
Target: RNA binding protein fox-1 homolog 2, RRM domain, GST-SBP tag (RBFOX2, Homo sapiens, UniProt O43251-10, residues 100-194)
Notes: natural RNA segment, single round, ends assumed
Shared flanks, not repeated: GGGAGUUCUACAGUCCGACGAUC … UGGAAUUCUCGGGUGCCAA
Residues (chain): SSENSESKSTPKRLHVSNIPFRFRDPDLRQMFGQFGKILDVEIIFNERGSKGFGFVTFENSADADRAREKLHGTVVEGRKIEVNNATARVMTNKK
Strand = AGUGGCUCUUACAAAACUCUGUUCCCACUCCCUCUCUUGCCGACAAGGGCAACUCACGGGUGCAUGAAACCACUGGAACAUGGCCGUCGCUGUGGGGGUUUUUUUCUCUG; result = 1.88
Strand = ACUGCAAAGCCAUUCCUGACCUGUAAACCUCAGCUCUCCAUCUCUAUAAGAGGUAUAGCCUGGGCUAAUACCGUCCAAGUUACAACUCCUUGCUUGCUUUCUGUUCCUUC; result = 0.959
Strand = CAUUUCAAAAUACUUUAGUAUAUCAAUAUCAGUAGAUACCAGUGGGUGGGAAAGGGUCAUUACAUGAAAAUAUGAAGAAAUAGCCAUAUUAGUUUUUUAACCUGCAAUUU; result = 0.47
Strand = UGAAGGAGAAAAAGCUUAAAUUCCAUCUUGAGCUCUUGGAUUGUGAUAAUACAAUGAUUUCAUUAACUUUUCAUUUCUGUAUACCUGUUCAUUUGGAAUUUAAUGCUUGA; result = 0.419
Strand = UUUCCCUUCCCUUUGACUGUGUGGCCUUUCCCACACAGUUACUAACAGAUAUUUCUGAGUGGUGGAAUCAGGUUUUCUAUGUUCUGCUUUAAAGCCUGGAGUCUGUUAGA; result = 0.243
Strand = AUGCACUGCUUCCUGUAGUCUUUUAGAAAGUAACUCCAGGACAUCGAAGUGCCCAGAUUUGACUCCUAAGUUCUAGGAGACUGUAGCGCAGGGUCUGUCAACCUUAGCAC; result = 0.297
Strand = AAGGCAUGCCUCUCCCACAGGAAGAGGGGAGCAGACAGGGAAAUCUGCCUACCAAGAGGGGUGUGUGUGUCUUUGUGCCCACACGUGGUGGCUGGGGAGUGCCUGGAUGG; result = 0.636
Strand = AUCUCCACUCCCCAUGUCUCUGAGGUUCACUCCAGCCACCAUUUCUUUAGGCAGCUCUGCCUUAACCCAGGUUUCGUGUAAGAAACUUAACCUUCUCCCUUCCUACCAAU; result = 0.664

Set 3 — technique: aptamer microarray, sandwich; form: DNA with 2'F-ANA; medium: in vitro; concentration: 200 nM; with: Cy3 exosite-II aptamer, 400 nM; direction: higher = stronger binding; endpoint: mean fluorescence intensity; strand: GGTTGGTGTGGTTGG
Target: Prothrombin, mature alpha-thrombin (F2, Homo sapiens, UniProt P00734)
Notes: whole 15-mer aptamer, many near background
Modification = 2'F-ANA at 3 6 7 8 11 14 15; result = 473 a.u.
Modification = 2'F-ANA at 2 4 8 9 11; result = 327 a.u.
Modification = 2'F-ANA at 1 5 6 9 10 11; result = 48.8 a.u.
Modification = 2'F-ANA at 1 2 3 5 6 7 10 11 12 15; result = 56.6 a.u.
Modification = 2'F-ANA at 3 4 6 7 8 9 10 11 14 15; result = 201 a.u.
Modification = 2'F-ANA at 2 4 5 9 10 12 15; result = 52.3 a.u.
Modification = 2'F-ANA at 3 5 6 8 9 10 11; result = 54.5 a.u.
Modification = 2'F-ANA at 2 5 6 7 8 10 12 14; result = 68 a.u.
Modification = 2'F-ANA at 8 9 10 11 13 15; result = 120 a.u.
Modification = 2'F-ANA at 1 7 8 9 10 11 12; result = 90.4 a.u.
Modification = 2'F-ANA at 1 2 5 7 8 9 10 12 13 15; result = 48.4 a.u.
Modification = 2'F-ANA at 1 2 5 6 8 9 10 11 13 15; result = 53.2 a.u.
Modification = 2'F-ANA at 2 3 5 8 10 11 12 13 14; result = 52.1 a.u.
Modification = 2'F-ANA at 1 2 7 9 13; result = 114 a.u.
Modification = 2'F-ANA at 6 7 9 12 14 15; result = 202 a.u.
Modification = 2'F-ANA at 1 2 3 4 6 7 8 9 11 12 15; result = 220 a.u.
Modification = 2'F-ANA at 2; result = 450 a.u.
Modification = 2'F-ANA at 4 7 8 9 13 14 15; result = 92.8 a.u.
Modification = 2'F-ANA at 3 4 6 8 10 11 12 13 15; result = 221 a.u.
Modification = 2'F-ANA at 1 4 5 7 11 12 13 15; result = 91.1 a.u.

Set 4 — technique: competition protein-binding microarray; form: double-stranded DNA, one strand shown; medium: in vitro; concentration: 2 µM; with: Cbf1 competitor, 0.05 µM; direction: higher = stronger binding; endpoint: fluorescence intensity; shared flanks, not repeated: … GTCTTGATTCGCTTGACGCTGCTG
Target: Phosphate system positive regulatory protein PHO4, full length, GST-tagged (PHO4, Saccharomyces cerevisiae, UniProt P07270, residues 1-312)
Notes: whole 60-bp probe, lowest competitor level
Target sequence (chain): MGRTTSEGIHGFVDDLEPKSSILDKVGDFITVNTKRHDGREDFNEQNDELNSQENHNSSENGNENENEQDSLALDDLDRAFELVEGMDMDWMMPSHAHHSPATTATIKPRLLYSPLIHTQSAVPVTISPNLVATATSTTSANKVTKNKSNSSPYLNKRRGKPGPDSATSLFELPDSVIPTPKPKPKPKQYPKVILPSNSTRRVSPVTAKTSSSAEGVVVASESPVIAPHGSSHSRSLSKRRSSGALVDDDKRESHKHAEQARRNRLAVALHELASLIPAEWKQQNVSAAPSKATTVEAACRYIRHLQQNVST
Strand = TAAGTGAGGTTCCATCACGGGGCCACCGTTCTCATT; result = 6390 a.u.
Strand = CGTTGTCGATTTTCACACGTGCAAACAATGAGGTTG; result = 16400 a.u.
Strand = TTCTCTTCCGATATGACCGTGCTTTTAGCTGTTAGC; result = 7310 a.u.
Strand = TGCAGGGAGAGGTGGCACGAGGCCGAGAGACGGGAG; result = 11800 a.u.
Strand = CTAACGAAGGTTTGCTGTGTGGGTGACAAGCCAAGT; result = 5080 a.u.
Strand = CGTCCTAGCGATTGAGTAGTGGGTGCCATGAGGAAG; result = 6420 a.u.
Strand = CGGGCTGATAACTAGATGGTGTGTTCGGGCAGTATA; result = 4070 a.u.
Strand = AGAATCAGGCATTCGCGTGTGACGGGCGTCATTCAT; result = 6410 a.u.
Strand = CTGTGGGAGAGCCAGTTCGTGCCAGCCGTTATTTCT; result = 7050 a.u.
Strand = AACATCATAAATTAGCACGCAAACGGTAAAGAACAA; result = 7630 a.u.
Strand = AAGGCCGAGAGGAAGCGCGTGATGGAAGCCCGATCT; result = 6690 a.u.
Strand = CTTTCCCGATCTTTGCACGTGTTTTTAGCACATTTG; result = 15500 a.u.
Strand = CTTCTGTAAATTTGCCGTGTGGGTGGACGCGCCCCG; result = 6550 a.u.
Strand = CTTCTGTAAATTTTTCACGTGAGATGACGCGCCCCG; result = 9700 a.u.
Strand = TGTCGAGGTATCGGCCGCGTGGAACTACCGGGAATT; result = 7400 a.u.
Strand = CTAACGAAGGTTTGTCACGCCACTTACAAGCCAAGT; result = 5510 a.u.
Strand = CATACCCAACCTTGTCACTATACTTAAGATATTTGT; result = 3400 a.u.
Strand = TGCGCAACAACTTCACACGTGTTTTTATGTCTAGAA; result = 18100 a.u.
Strand = AAAGCGGTAATTTGCCGGGTGGGTGCAGATATCTAT; result = 4770 a.u.

For quick reference, copied from above (set 3):
Modification = 2'F-ANA at 1 2 7 9 13; result = 114 a.u.
Modification = 2'F-ANA at 2 5 6 7 8 10 12 14; result = 68 a.u.
Modification = 2'F-ANA at 1 2 3 4 6 7 8 9 11 12 15; result = 220 a.u.
Modification = 2'F-ANA at 1 2 5 7 8 9 10 12 13 15; result = 48.4 a.u.
Modification = 2'F-ANA at 1 2 5 6 8 9 10 11 13 15; result = 53.2 a.u.
Modification = 2'F-ANA at 1 7 8 9 10 11 12; result = 90.4 a.u.
Modification = 2'F-ANA at 6 7 9 12 14 15; result = 202 a.u.
Modification = 2'F-ANA at 1 5 6 9 10 11; result = 48.8 a.u.
Modification = 2'F-ANA at 4 7 8 9 13 14 15; result = 92.8 a.u.
Modification = 2'F-ANA at 3 6 7 8 11 14 15; result = 473 a.u.
Modification = 2'F-ANA at 3 5 6 8 9 10 11; result = 54.5 a.u.
